Measurements collected from several papers.
“And” joins repeats or separate records; there may be more than shown. ± marks the error that the study gave.

| Molecule | cell line | assay | system | setting | how to read | endpoint | result |
| --- | --- | --- | --- | --- | --- | --- | --- |
| c1ccc2[nH]c(-c3ccsc3)cc2c1 | RAW264.7 | sulforhodamine B |  | 50 µM, 20 h | reference: vehicle | viability | 90.6 ± 2.6% |
| N=C(N)NCCC[C@H](NC(=O)[C@@H]1CSSC[C@H](NC(=O)[C@H](Cc2ccc3ccccc3c2)NC(=O)[C@H](CCCNC(=N)N)NC(=O)[C@H](CCCNC(=N)N)NC(=O)CN2CCN(CC(=O)O)CCN(CC(=O)O)CC2)C(=O)N[C@@H](Cc2ccc(O)cc2)C(=O)N[C@@H](CCCNC(N)=O)C(=O)N[C@@H](CCCCN)C(=O)N[C@H](CCCCN)C(=O)N2CCC[C@H]2C(=O)N[C@@H](Cc2ccc(O)cc2)C(=O)N[C@@H](CCCNC(=N)N)C(=O)N[C@@H](CCCNC(N)=O)C(=O)N1)C(N)=O [fluorine-18 labelled] | CHO expressing CXCR4 |  |  | 1 h, 37 °C | reference: added radioactivity | cell uptake | 46.4 ± 1.33% |
| C[C@H](NC(=O)[C@H](CC(=O)NCC(C)(C)C)NC(=O)c1ccc(C(=O)NO)cc1)C(=O)NCc1ccccc1 | HL-60, SEM and SUP-B15r | chymotrypsin-like activity, inhibitor |  | 4 nM to 25 µM, 2 h |  | proteasome activity | inhibited |
| CNCCCN1c2ccccc2CCc2ccccc21 | hiPSC-derived cardiomyocytes |  |  | 3 µM, 72 h, 24 h pretreatment, together with: doxorubicin 10 µM | reference: doxorubicin alone | cell viability | 2.5 fold |
| NNC(=O)Cn1cc(COc2ccccc2-c2nc(-c3ccccc3)no2)nn1 | Caco-2 | qPCR, refers to: TP53 |  | concentration not given, 24 h | reference: untreated | mRNA level | 5.13 fold |
| CC(C)Oc1ccc(C(=O)Cn2ccnc2)cc1-n1c(CN2CCN(C(=O)COc3ccc(Cl)cc3)CC2)nc2ccccc2c1=O | SU-DHL-6 | RT-qPCR, refers to: lipid metabolism genes |  | 500 nM |  | mRNA level | increased |
| O=C(Cn1cc(COc2ccccc2-c2nc(Cc3ccccc3)no2)nn1)NNC(=S)Nc1ccccc1 | Caco-2 | qPCR, refers to: mTOR |  | IC50, 24 h | reference: untreated cancer cells | mRNA level | 0.365 ± 0.01 fold |
| COc1cc(/C=C/C(=O)CC(=O)/C=C/c2ccc(O)c(OC)c2)ccc1O | HEK293T | western blot |  | 50 µM, 4 h |  | Tat secretion | no effect |
| O=C(CCc1cc(C(=O)NO)no1)Nc1nc(-c2ccccc2)cs1 | BXPC-3 | cell growth or viability, MTS |  | 72 h |  | GI50 | 2.3 µM |
| O=C1Nc2ccccc2/C1=N/N=Cc1ccc(OCc2ccccc2)cc1 | SH-SY5Y | neuroprotection, MTT |  | 1.5 µg/mL, 24 h, together with: rotenone 10 µM |  | viability | ~50% |
| CCN(CC)C(=O)Cc1c(-c2ccc(OCC[18F])cc2)nn2c(C)cc(C)nc12 | RAW264.7 |  |  | 1 h, 37 °C, together with: PK11195 5 ng/mL | reference: added dose | uptake | 1.27% |
| CC(=O)Oc1ccc(/C=C\C(=O)Nc2ccc(S(=O)(=O)Nc3ncccn3)cc2)cc1OC(C)=O | A549 | cell viability, MTT |  | 24 h pretreatment, together with: H2O2 800 µM for 4 h |  | protective concentration | ≤ 50 µM |
| Nc1ccccc1C#Cc1cc(F)cc(F)c1 | RAW264.7 | NO release, inhibitor, Griess |  | 50 µM, 20 h, LPS-stimulated |  | inhibition | 97.4% |
| fMLF analogue | rabbit polymorphonuclear leukocytes |  |  | 2 x 10 to 8 M, 30 min, 37 °C |  | pinocytic pool depletion rate constant | 0.198 min⁻¹ |
| COCn1c(-c2ccccc2)cc2ccccc21 | RAW264.7 | sulforhodamine B |  | 50 µM, 20 h | reference: vehicle | viability | 67.3 ± 6.2% |
| NS(=O)(=O)c1ccc(Nc2nc3nccc(-c4ccccc4Cl)n3n2)cc1 | HD-MB03 and Daoy medulloblastoma | cell viability, resazurin |  | 10 µM, 72 h, hypoxia | reference: untreated | viability decrease | 20 to 35% |
| CCCCCc1ccc(-c2cc3ccccc3[nH]2)cc1 | RAW264.7 | NO release, inhibitor, Griess |  | 50 µM, 20 h, LPS-stimulated |  | inhibition | 31.9% |
| CC1=C(CCC(=O)O)c2cc3[nH]c(cc4nc(cc5[nH]c(cc1n2)c(C)c5C(C)O)C(C)=C4C(C)O)c(C)c3CCC(=O)O (centres unmarked) | red blood cells | bright-field and fluorescence microscopy |  | concentration not given, irradiation beyond lysis |  | ghost morphology | no effect |

| Molecule | cell line | assay | system | setting | how to read | endpoint | result |
| --- | --- | --- | --- | --- | --- | --- | --- |
| COc1cccc2c1C(=O)c1c(O)c3c(c(O)c1C2=O)C[C@@](O)(C(=O)CO)C[C@@H]3O[C@H]1C[C@H](N)[C@H](O)[C@H](C)O1 | HS5 | cell viability |  |  | reference: 3D mono-culture over tissue chip | IC50 ratio | ~33 fold |
| CN(C)c1ccc2cc(-c3ccccc3F)c(N3CCOCC3)nc2c1 | mouse fibroblasts | Western blot | conditioned medium | 500 nM, 24 h, unit not given | reference: Col1A1 | secreted Par-4 level | 54.4 ± 2.8 |
| CN(C)c1ccc(-c2cc3ccccc3[nH]2)cc1 | RAW264.7 | sulforhodamine B |  | 50 µM, 20 h | reference: vehicle | viability | 60.9 ± 4% |
| NC1(C(=O)O)CC2CCC1C2 (centres unmarked) | IDO-transduced EG7 | tryptophan uptake |  | sodium-free, uptake 3 min, together with: 3H-L-tryptophan |  | Ki | 80 µM |
| CN(C)c1ccc2cc(-c3ccc(F)cc3)c(N)nc2c1 | mouse fibroblasts | Western blot | conditioned medium | 500 nM, 24 h, unit not given | reference: Col1A1 | secreted Par-4 level | 12.3 ± 2 |
| NC(=O)Cn1cc(COc2ccccc2-c2nc(-c3ccccc3)no2)nn1 | Caco-2 | qPCR, refers to: EGFR |  | IC50, 24 h | reference: untreated cancer cells | mRNA level | 0.37 ± 0.08 fold |
| COc1ccc(N(C)c2nc(C)nc3[nH]ccc23)cc1 | SK-OV-3 MDR-1-6/6 P-gp overexpressing | SRB |  |  | reference: SK-OV-3 parental over | relative resistance | 1.2 |
| Cc1ccc(-c2cc3ccccc3[nH]2)cc1 | RAW264.7 | sulforhodamine B |  | 50 µM, 20 h | reference: vehicle | viability | 57.9 ± 9.5% |
| CO[C@@H]1[C@H](O)[C@@H](COP(=O)(O)OP(=O)([O-])OP(=O)(O)OP(=O)(O)OC[C@H]2O[C@@H](n3cnc4c(=O)[nH]c(N)nc43)[C@H](O)[C@@H]2O)O[C@H]1n1c[n+](C)c2c(O)nc(N)nc21 | human immature dendritic cells | reporter gene |  | cap on electroporated luciferase mRNA | reference: beta-S-ARCA D1 capped mRNA | relative translation efficiency | 1.25 ± 0.15 |
| c1ccc(Cn2c(-c3ccccc3)cc3ccccc32)cc1 | RAW264.7 | NO release, inhibitor, Griess |  | 50 µM, 20 h, LPS-stimulated |  | inhibition | 0% |
| Nc1nc2cc(C(=O)O)ccc2cc1-c1ccccc1F | mouse fibroblasts | Western blot | conditioned medium | 500 nM, 24 h, unit not given | reference: Col1A1 | secreted Par-4 level | < 50 |
| COc1cccc2c1C(=O)c1c(O)c3c(c(O)c1C2=O)C[C@@](O)(C(=O)CO)C[C@@H]3O[C@H]1C[C@H](N)[C@H](O)[C@H](C)O1 | Caco-2 | qPCR, refers to: EGFR |  | IC50, 24 h | reference: untreated | mRNA level | 0.15 ± 0.03 fold |
| CC(C)C[C@H](NC(=O)[C@H](CCCCN)NC(=O)[C@H](CCCNC(=N)N)NC(=O)[C@@H]1CCCN1C(=O)[C@H](CCC(=O)O)NC(=O)CNC(=O)[C@H](Cc1ccc(O)cc1)NC(=O)[C@H](C)NC(=O)[C@@H](N)CO)C(=O)O | CD8+ T cells with peptide-pulsed DCs |  |  | concentration not given, 24 h |  | IFN-γ level | 177 ± 19.7 pg/mL |
| COc1ccccc1-c1ccnc2nc(Nc3ccc(S(N)(=O)=O)cc3)nn12 | HD-MB03 and Daoy medulloblastoma | cell viability, resazurin |  | 10 µM, 72 h, hypoxia | reference: untreated | viability decrease | 20 to 35% |
| COc1cccc(-c2cc3ccccc3[nH]2)c1 | RAW264.7 | sulforhodamine B |  | 50 µM, 20 h | reference: vehicle | viability | 92.8 ± 6.4% |
| Clc1cccc(Cl)c1N=C1NCCN1 | TR-BBB | uptake |  | together with: [3H]imperatorin |  | Ki | 1100 µM and 1000 µM |
| CCn1cc(-c2cc(Cn3ccnc3)cc3c2CCN([C@H](c2cc(C)ccn2)C2CC2)C3=O)c(C(F)(F)F)n1 | MOLM-13 | cell growth or viability, ATP luminescence |  | 5 days |  | GI50 | 0.027 µM |
